Measurements of several laboratories.
Protocols differ between the studies behind these lines. Numbers after ± are the reported error.
ALB: Albumin (ALB, Bos taurus, UniProt P02769)

| Structure (SMILES) | target | assay | test system | conditions | how to read | quantity | value |
| --- | --- | --- | --- | --- | --- | --- | --- |
| O=C(Nc1ccc(N2C(=O)c3ccc(Cl)cc3C2=O)c(Cl)c1)c1ncccc1Cl | Metabotropic glutamate receptor 1 (GRM1, Homo sapiens, UniProt Q13255) | calcium signal, positive allosteric modulator | T-REx-293 |  |  | Emax | 86% |
| COc1ccc(NCc2c(OCc3ccc(F)cc3)ccc3ccccc23)cc1Cl | Histone acetyltransferase KAT5 (KAT5, Homo sapiens, UniProt Q92993) | activator |  | 20 µM |  | histone acetyltransferase activity | increased |
| C[n+]1cn(C2OC(COP(=O)([O-])OP(=O)(O)OP(=O)(O)OCC3OC(n4cnc5c(=O)[nH]c(N)nc54)C(O)C3O)C(O)C2O)c2nc(NCc3cc(-c4ccccc4)no3)[nH]c(=O)c21 (stereo not shown) | NUDT16 (Homo sapiens, UniProt Q96DE0) | decapping, substrate | capped RNA transcribed by SP6 polymerase | concentration not given, 30 min |  | cap hydrolysis | 33.2% |
| CCCCCCOc1ccc(C(=O)OCCN2CC=CCC2)cc1 | Muscarinic acetylcholine receptor M4 (CHRM4, Homo sapiens, UniProt P08173) | antagonist, measured: inositol phosphates | CHO co-expressing G15 | together with: carbachol |  | cooperativity factor | 0.001 ± 0.0002 |
| CC(=O)N[C@@H](CC(N)=O)C(=O)N[C@@H](CCCNC(=N)N)C(=O)N[C@@H](CCCNC(=N)N)C(=O)N[C@@H](CC(N)=O)C(=O)N[C@H](C(=O)N[C@@H](C)C(=O)N[C@@H](CC(N)=O)C(=O)N[C@@H](CCN1C(=O)c2ccc(N(C)C)cc2C1=O)C(=O)N[C@@H](CCCNC(=N)N)C(=O)N[C@H](C(=O)N[C@H](C(=O)N1CCC[C@H]1C(=O)N[C@H](C(=O)O)C(C)C)[C@@H](C)O)[C@@H](C)O)[C@@H](C)O | Disks large homolog 4, PDZ1-2 domains (Homo sapiens, UniProt P78352) | PDZ domain binding, fluorescence emission intensity | PSD-95 PDZ1-2 tandem construct | 4-DMAP-Dab at position -5 | reference: probe without PDZ domain | relative fluorescence increase | 6.9 |
| O=C(O)CCC(NC(=O)NC(CCCCNC(=O)C(Cc1ccc2ccccc2c1)NC(=O)C1CCC(CNC(=O)CCC(C(=O)O)N2CCN(CC(=O)O)CCN(CC(=O)O)CC2)CC1)C(=O)O)C(=O)O (stereo not shown) | Glutamate carboxypeptidase 2 (FOLH1, Homo sapiens, UniProt Q04609) |  | LNCaP | 30 nM, 45 min, 37 °C, 177Lu-labelled | reference: total cell-bound | internalized fraction | 48.5 ± 16.4% |
| CC(=O)N[C@H](CCCNC(=N)N)C(=O)N[C@@H](Cc1ccc(O)cc1)C(=O)N[C@@H](CCCNC(=N)NC(=O)NCCCCN)C(=O)N[C@@H](CC(C)C)C(=O)N[C@@H](CCCNC(=N)N)C(=O)N[C@@H](Cc1ccc(O)cc1)C(N)=O | Neuropeptide Y receptor type 4 (NPY4R, Homo sapiens, UniProt P50391) | calcium mobilization, agonist, aequorin | CHO-hY4-Gqi5-mtAEQ | concentration not given, unit not given | reference: 1 µM human pancreatic polypeptide | intrinsic activity | 0.63 |
| CNc1ccccc1C(=O)O[C@H]1C[C@H](n2cnc3c(N)ncnc32)O[C@@H]1COP(=O)(O)OP(=O)(O)O | Unconventional myosin-Va (Gallus gallus, UniProt Q02440, D297C/G292C/I296C/S293C/V295G) | van't Hoff analysis |  | concentration not given, together with: 2 mM Mg2+ |  | ∆G of ligand binding | -7.9 ± 0.1 kcal/mol |
| [3H]C([3H])([3H])Nc1ccc(-c2nc3ccc(O)cc3o2)cn1 | Amyloid-beta precursor protein, Aβ40 fibrils (APP, Homo sapiens, UniProt P05067) |  | Aβ(1-40) fibrils |  |  | dissociation half-life second phase | 8.9 ± 1.2 min |
| COC(=O)c1cnc(-c2cnccn2)cc1C(=O)OC.COC(=O)c1cnc(-c2cnccn2)cc1C(=O)OC.[Cl-].[Cl-].[Cl-].[Cl-].[Cu+2].[Cu+2] | ALB | fluorescence emission |  | emission 365.0 nm |  | fluorescence quenching | 84.4% |
| O=C(O)C(COP(=O)(O)O)OP(=O)(O)O (stereo not shown) | Phosphoglycerate mutase 1 (Homo sapiens, UniProt P18669) | histidine phosphorylation, phosphate donor, immunoblotting |  |  |  | effective concentration | 0.01 mM |
| CC(=O)[O-].O.[Cu+2].[O-]c1ccc(Br)cc1C=NCCN1CCOCC1 | ALB | UV absorption titration |  | concentration not given, pH 7.2, 25 °C |  | hyperchromism | 74.1% |
| CCc1nc2cc3ccccc3cc2cc1C(=O)N1CCC[C@H]1C(=O)N[C@@H](C/C=C\C[C@H](NC(=O)[C@@H]1CCCN1C(=O)c1cc2cc3ccccc3cc2nc1CC)C(=O)N[C@@H](CCCCN)C(=O)NCCCN)C(=O)N[C@@H](CCCCN)C(=O)NCCCN | (CUG)2 RNA | SPR |  |  |  | residence time | 757 s |

Excerpt of the above:
| Structure (SMILES) | target | assay | test system | conditions | how to read | quantity | value |
| --- | --- | --- | --- | --- | --- | --- | --- |
| O=C(Nc1ccc(N2C(=O)c3ccc(Cl)cc3C2=O)c(Cl)c1)c1ncccc1Cl | Metabotropic glutamate receptor 1 (GRM1, Homo sapiens, UniProt Q13255) | calcium signal, positive allosteric modulator | T-REx-293 |  |  | Emax | 86% |
| COc1ccc(NCc2c(OCc3ccc(F)cc3)ccc3ccccc23)cc1Cl | Histone acetyltransferase KAT5 (KAT5, Homo sapiens, UniProt Q92993) | activator |  | 20 µM |  | histone acetyltransferase activity | increased |
